{"data": "Experimental data collected from several papers", "note": "Lines come from different studies, so protocols differ. ± gives the spread as reported."}
{"Compound": "CCn1c(SC(C)C(=O)Nc2ccccc2)nnc1C1CCN(C(=O)Nc2ccccc2)CC1 (stereo not drawn)", "cell line": "human blood mononuclear cells", "test": "MTT", "conditions": "0.25 mM, 2 h, pH 7.4", "measurement": "viability", "value": "82.2 ± 2.9%"}
{"Compound": "CC(C)C[C@H](NC(=O)[C@H](C)NC(=O)[C@H](CCCCN)NC(=O)[C@H](C)NC(=O)[C@H](CCCNC(=N)N)NC(=O)[C@H](C)NC(=O)[C@H](CCC(N)=O)NC(=O)[C@H](CCCNC(=N)N)NC(=O)[C@H](C)NC(=O)[C@H](C)NC(=O)[C@H](C)NC(=O)[C@H](CCCNC(=N)N)NC(=O)[C@H](C)NC(=O)[C@H](Cc1ccc(O)cc1)NC(=O)CCNC(=S)Nc1ccc2c(c1)C(=O)OC21c2ccc(O)cc2Oc2cc(O)ccc21)C(=O)N[C@@H](C)C(=O)N[C@@H](CCCNC(=N)N)C(=O)N[C@@H](CCC(N)=O)C(=O)N[C@@H](CC(C)C)C(=O)NCC(=O)N[C@H](C(=O)N[C@@H](C)C(=O)N[C@@H](C)C(N)=O)C(C)C", "cell line": "mesothelial cells", "test": "flow cytometry", "conditions": "concentration not given, 1 h, added: 10 mM methyl-beta-cyclodextrin", "measurement": "uptake", "value": "inhibited"}
{"Compound": "COc1ccc([C@@H]2CC(=O)c3c(O)cc(O[C@@H]4O[C@H](CO[C@@H]5O[C@@H](C)[C@H](O)[C@@H](O)[C@H]5O)[C@@H](O)[C@H](O)[C@H]4O)cc3O2)cc1O", "cell line": "MRC5", "test": "cell growth or viability, MTS", "conditions": "150 µg/mL, 24 h", "measurement": "viability", "value": "40.7%"}
{"Compound": "O=C(O)CNc1nc(NNC(=O)c2ccc(Nc3nc(Nc4ccc(C(=O)NNc5nc(NCC(=O)O)nc(N6CCOCC6)n5)cc4)nc(Nc4ccc(C(=O)NNc5nc(NCC(=O)O)nc(N6CCOCC6)n5)cc4)n3)cc2)nc(N2CCOCC2)n1", "cell line": "WI-38 cells", "test": "cell viability, MTT", "conditions": "72 h", "measurement": "maximum non-toxic concentration", "value": "1.9 ± 0.2 nM"}
{"Compound": "CC(=O)c1cccc(NC2C(N)C(NC(=O)N(C)C)(C(C)O)C(O)C2(O)COC(=O)c2c(C)cccc2O)c1 (stereo not drawn)", "cell line": "MRC-5", "test": "cytotoxicity", "conditions": "free compound", "measurement": "EC50", "value": "0.0065 µM"}
{"Compound": "O=C(CNc1nc(Cl)nc(NNC(=O)c2ccc(Nc3nc(Nc4ccc(C(=O)NNc5nc(Cl)nc(NCC(=O)NO)n5)cc4)nc(Nc4ccc(C(=O)NNc5nc(Cl)nc(NCC(=O)NO)n5)cc4)n3)cc2)n1)NO", "cell line": "WI-38 cells", "test": "cell viability, MTT", "conditions": "72 h", "measurement": "maximum non-toxic concentration", "value": "15.6 nM"}
{"Compound": "O=C1/C(=C/c2ccc3c(c2)OCCO3)SC(=S)N1[C@@H]1O[C@H](CO)[C@@H](O)[C@H](O)[C@H]1O", "cell line": "MCF-10A", "test": "cell growth or viability, MTT", "conditions": "100 µM, 48 h", "measurement": "viability", "value": "~75%"}
{"Compound": "CCn1c(SC(C)C(=O)Nc2cc(C)ccc2C)nnc1C1CCN(C(=O)Nc2ccccc2)CC1 (stereo not drawn)", "cell line": "human blood mononuclear cells", "test": "MTT", "conditions": "0.25 mM, 2 h, pH 7.4", "measurement": "viability", "value": "87.6 ± 2.9%"}
{"Compound": "CC1=CC2(C)C(=C(C)C3C4CC(C)CC(C)C4C4Oc5ccc(cc5)CC5(O)NC(=O)C(=C(O)C2C43)C5Nc2ncnc3c2ncn3C2OC(CO)C(O)C2O)C1C (stereo not drawn)", "cell line": "NFκB-MDA-MB-231", "test": "NF-κB reporter gene", "how to read": "reference: cytotoxicity IC50 over NF-κB IC50", "measurement": "selectivity ratio", "value": "~3"}
{"Compound": "Clc1cc(Cl)c2c(c1)[C@H](NCCCNc1nc3cccnc3[nH]1)CCO2", "cell line": "CRL-8155 and HepG2", "test": "cytotoxicity", "measurement": "EC50", "value": "≥ 20 µM"}
{"Compound": "COC(=O)COc1ccc(NC(=O)C2(c3ccc(Cl)c(Cl)c3)CC2)c(C)c1", "cell line": "U-937", "test": "LDH release", "conditions": "25 µM, 4 h", "how to read": "reference: Triton X-100", "measurement": "cytotoxicity", "value": "-1%"}
{"Compound": "CN(Cc1cc(N(C)C)c2c(c1O)C(=O)C1=C(O)[C@]3(O)C(=O)C(C(N)=O)=C(O)[C@@H](N(C)C)[C@@H]3C[C@@H]1C2)CC(C)(C)C", "cell line": "CHO", "test": "cytotoxicity, resazurin", "conditions": "10% fetal calf serum", "measurement": "TC50", "value": "> 100 µg/mL"}
{"Compound": "COc1cccc2c1C(=O)c1c(O)c3c(c(O)c1C2=O)CC(O)(C(=O)CO)CC3OC1CC(NC(=O)C[C@H](N)C(=O)O)C(O)C(C)O1 (stereo partly drawn)", "cell line": "H1299 (LAT1-negative)", "test": "HPLC", "conditions": "20 µg/mL, 2 h, serum-free medium", "measurement": "cellular uptake", "value": "0.016 ± 0.0012 µg/mL"}
{"Compound": "CC(C)(C)n1nc(-c2ccc(Cl)cc2)c2c(N)ncnc21", "cell line": "L929", "test": "western blot", "conditions": "3 h, 10% FBS", "measurement": "lowest concentration with caspase cleavage", "value": "25 µM"}
{"Compound": "O=C(NCCCCCCCNc1n[n+]([O-])c2ccccc2[n+]1[O-])C(F)(F)F", "cell line": "HCT-116", "how to read": "reference: normoxic IC50 over hypoxic IC50", "measurement": "hypoxic cytotoxicity ratio", "value": 2.1}
{"Compound": "CN(C)c1cc(CN2CCCCC2)c(O)c2c1C[C@H]1C[C@H]3[C@H](N(C)C)C(O)=C(C(N)=O)C(=O)[C@@]3(O)C(O)=C1C2=O", "cell line": "CHO", "test": "cytotoxicity, resazurin", "conditions": "10% fetal calf serum", "measurement": "TC50", "value": "> 100 µg/mL"}
{"Compound": "CCn1c(SC(C)C(=O)Nc2ccc(C)c(C)c2)nnc1C1CCN(C(=O)Nc2ccccc2)CC1 (stereo not drawn)", "cell line": "human blood mononuclear cells", "test": "MTT", "conditions": "0.25 mM, 2 h, pH 7.4", "measurement": "viability", "value": "79.3 ± 2.9%"}
{"Compound": "Clc1cc(Cl)c2c(c1)[C@H](NCCCNc1nc3ncccc3[nH]1)CCN2", "cell line": "CRL-8155 and HepG2", "test": "cytotoxicity", "measurement": "EC50", "value": "≥ 20 µM"}
{"Compound": "CCn1c(SC(C)C(=O)Nc2ccccc2C)nnc1C1CCN(C(=O)Nc2ccccc2)CC1 (stereo not drawn)", "cell line": "human blood mononuclear cells", "test": "MTT", "conditions": "0.25 mM, 2 h, pH 7.4", "measurement": "viability", "value": "76.6 ± 2.7%"}
{"Compound": "CC(=O)N[C@H](C(=O)N[C@H](C(=O)N[C@@H](CCCNC(=N)N)C(=O)N1Cc2ccccc2C[C@H]1C(=O)N[C@@H](Cc1ccccc1)C(N)=O)C1CCCCC1)C(C)C", "cell line": "human PBMC", "test": "Bio-Plex multiplex, item: IL-17", "conditions": "250 µg/mL, 24 h", "measurement": "cytokine level", "value": "5.5 ± 4.7 pg/mL"}
{"Compound": "CC(C)=CCC[C@@H](C)[C@@H]1CC[C@]2(C)C3=C(CC[C@@]12C)[C@@]1(C)CC[C@H](OC(=O)c2ccccc2)C(C)(C)[C@@H]1CC3", "cell line": "SK-LU-1", "test": "cell growth or viability, SRB", "conditions": "50 µM", "measurement": "inhibition", "value": "10.9%"}
{"Compound": "Fc1ccc2nc(NCCCNCc3cc(Cl)cc(Cl)c3)[nH]c2n1", "cell line": "CRL-8155 and HepG2", "test": "cytotoxicity", "measurement": "EC50", "value": "≥ 20 µM"}
{"Compound": "CC1=NNC(c2cn(CC(=O)Nc3nc(-c4ccccc4)cs3)nn2)C1 (stereo not drawn)", "cell line": "WI-38", "test": "MTT", "conditions": "72 h, 100% viability, 10% FBS", "measurement": "safe concentration", "value": "187 ± 8 nM"}
{"Compound": "CC(C)=CCCC(C)C1CCC2(C)C3=C(CCC12C)C1(C)CCC(=O)C(C)(C)C1CC3 (stereo not drawn)", "cell line": "SK-LU-1", "test": "cell growth or viability, SRB", "conditions": "50 µM", "measurement": "inhibition", "value": "31.3%"}
{"Compound": "NS(=O)(=O)c1ccc(NC(=O)NN[C@@H]2O[C@H](CO)[C@@H](O)[C@H](O)[C@@H]2O)cc1", "cell line": "rabbit erythrocytes", "conditions": "32 µg/mL, 3 h", "how to read": "reference: complete lysis", "measurement": "hemolysis", "value": "3.15%"}
{"Compound": "O=C(CNc1nc(NNC(=O)c2ccc(Nc3nc(Nc4ccc(C(=O)NNc5nc(NCC(=O)NO)nc(N6CCCCC6)n5)cc4)nc(Nc4ccc(C(=O)NNc5nc(NCC(=O)NO)nc(N6CCCCC6)n5)cc4)n3)cc2)nc(N2CCCCC2)n1)NO", "cell line": "WI-38 cells", "test": "cell viability, MTT", "conditions": "72 h", "measurement": "maximum non-toxic concentration", "value": "15 ± 0.3 nM"}
{"Compound": "c1ccc(-c2nc(-c3ccc4ccccc4c3)c[nH]2)cc1", "cell line": "MRC-5", "test": "cytotoxicity, resazurin", "conditions": "7 days, 5% fetal calf serum", "measurement": "EC50", "value": "20 µM"}
{"note": "Excerpt of the above:"}
{"Compound": "Fc1ccc2nc(NCCCNCc3cc(Cl)cc(Cl)c3)[nH]c2n1", "cell line": "CRL-8155 and HepG2", "test": "cytotoxicity", "measurement": "EC50", "value": "≥ 20 µM"}
{"Compound": "Clc1cc(Cl)c2c(c1)[C@H](NCCCNc1nc3cccnc3[nH]1)CCO2", "cell line": "CRL-8155 and HepG2", "test": "cytotoxicity", "measurement": "EC50", "value": "≥ 20 µM"}
{"Compound": "CC(=O)c1cccc(NC2C(N)C(NC(=O)N(C)C)(C(C)O)C(O)C2(O)COC(=O)c2c(C)cccc2O)c1 (stereo not drawn)", "cell line": "MRC-5", "test": "cytotoxicity", "conditions": "free compound", "measurement": "EC50", "value": "0.0065 µM"}
